{"data": "Measured values gathered from unrelated publications", "note": "Each line is one published result; not all experiments were run side by side. ± marks the error that the study gave."}
{"Substance": "CNCc1ccc(-c2[nH]c3cc(F)cc4c3c2CCNC4=O)cc1", "system": "human, plasma", "conditions": "oral, 300 mg, fed, high-fat meal, median", "measurement": "Tmax", "value": "5.95 h"}
{"Substance": "CC(C)NC[C@@H](C(=O)N1CCN(c2ncnc3c2[C@H](C)C[C@H]3O)CC1)c1ccc(Cl)cc1", "system": "human, Mild hepatic function (Child-Pugh), plasma", "conditions": "oral, 100 mg single dose, arithmetic mean", "measurement": "t1/2", "value": "48.6 h"}
{"Substance": "CC(=O)N1CCC[C@H]1C(=O)N[C@@H](CCCNC(=N)N)C(=O)N[C@H](C(=O)N[C@@H](CCCNC(=N)N)C(=O)N[C@H](C(=O)N[C@@H](CCCNC(=N)N)C(=O)N[C@H](C(=O)N[C@@H](CC(=O)O)C(=O)N1CCC[C@H]1C(=O)N[C@@H](CCCNC(=N)N)C(=O)N[C@H](C(=O)N[C@@H](CC(=O)O)C(=O)N[C@H](C(=O)N[C@@H](CCCNC(=N)N)C(=O)N[C@H](C(=O)N[C@@H](CC(=O)O)C(=O)N1CCC[C@H]1C(N)=O)C(C)C)C(C)C)C(C)C)C(C)C)C(C)C)C(C)C", "test": "rotational rheometry", "system": "2% w/v aqueous solution", "conditions": "shear rate range 1-1000 s^-1", "measurement": "viscosity", "value": "3580 ± 86.1 Pa·s"}
{"Substance": "COc1ccccc1C(=O)Nc1cccc(NC(=O)c2cccc(C)c2)c1", "system": "PBS/acetonitrile 1:1, 1% DMSO", "conditions": "10 µM, 48 h, pH 7.4, room temperature", "measurement": "compound remaining", "value": "100%"}
{"Substance": "COc1cccc(N2CCN(C3=Nc4c(F)cccc4[C@H](CC(=O)O)N3c3cc(C(F)(F)F)ccc3OC)CC2)c1", "test": "UHPLC-MS/MS", "system": "healthy women, plasma", "conditions": "intravenous infusion, 960 mg single dose, 60 min infusion, HPβCD formulation", "measurement": "volume of distribution", "value": "79 ± 42.4 L"}
{"Substance": "Cc1c(C(=O)c2ccccc2)c(N)c(-c2ccccc2)n1Cc1ccc(Cl)cc1", "system": "mouse, brain", "conditions": "intraperitoneal, 20 mg/kg", "measurement": "brain level", "value": "not detected"}
{"Substance": "Cn1cc(C[C@H](N)C(=O)O)c2ccccc21", "system": "domestic pig", "conditions": "sc, 1 g daily for five days", "measurement": "body weight", "value": "14.1 ± 1.1 kg"}
{"Substance": "CCn1nc(C2CC2)cc1Nc1nc(C(=O)NCCCCCc2cccc3c2CN(C2CCC(=O)NC2=O)C3=O)nc2[nH]c3cc(-c4c(C)noc4C)c(OC)cc3c12 (stereo not drawn)", "system": "female SCID C.B-17 mouse, RS4;11 xenograft, tumour", "conditions": "intravenous, 5 mg/kg single, 3 h", "measurement": "concentration in tumour", "value": "86 ng/g"}
{"Substance": "Cn1c(-c2ccc(C(N)=O)cc2F)nnc1C(C)(C)Oc1c(F)cc(Cl)cc1F", "system": "young non-Japanese subjects, plasma", "conditions": "oral, 20 mg single dose, day 1", "measurement": "Cmax mean", "value": "232 ng/mL"}
{"Substance": "C[C@@H]1CCN(C(=O)CC#N)C[C@@H]1N(C)c1ncnc2[nH]ccc12", "system": "rat, control", "conditions": "intravenous infusion, 10 mg/kg, 24 h", "how to read": "reference: dose", "measurement": "amount remaining in gastrointestinal tract", "value": "0.484 ± 0.298%"}
{"Substance": "des-acyl ghrelin (human)", "system": "mouse, wild type, cerebellum", "conditions": "intravenous, 10 min", "measurement": "brain/serum ratio", "value": "10 µL/g"}
{"Substance": "CN[C@H](CC(C)C)C(=O)N[C@H]1C(=O)N[C@@H](CC(N)=O)C(=O)N[C@H]2C(=O)N[C@H]3C(=O)N[C@H](C(=O)N[C@H](C(=O)O)c4cc(O)cc(O)c4-c4cc3ccc4O)[C@H](O)c3ccc(c(Cl)c3)Oc3cc2cc(c3O[C@@H]2O[C@H](CO)[C@@H](O)[C@H](O)[C@H]2O[C@H]2C[C@](C)(N)[C@H](O)[C@H](C)O2)Oc2ccc(cc2Cl)[C@H]1O", "system": "BALB/c mouse, serum", "conditions": "ip, dose not given", "measurement": "serum total protein", "value": "6 ± 0.6 g/dL"}
{"Substance": "Nc1ccc(S(=O)(=O)Nc2ccnn2-c2ccccc2)cc1", "test": "rosiglitazone metabolism, inhibitor", "system": "human liver microsomes", "conditions": "2.5 µM, together with: rosiglitazone 10 µM", "measurement": "inhibition", "value": "30%"}
{"Substance": "CN1CC[C@@H](NC(=O)Nc2ccc(C#N)cc2)C[C@@H]1c1nc2ccccc2[nH]1", "system": "severe hepatic impairment, plasma", "conditions": "oral, 100 mg single dose, fasted, geometric mean", "measurement": "AUC(0-inf), unbound", "value": "983 ng·h/mL"}
{"Substance": "CC(C)(CC(=O)N1CCCC1)NCC(=O)N1C[C@@H](F)C[C@H]1C#N", "system": "Chinese type 2 diabetes patients, plasma", "conditions": "oral, 200 mg once daily, multiple doses", "measurement": "AUC(0-t) at steady state", "value": "3700 ng·h/mL"}
{"Substance": "O=C(c1cc(Cc2n[nH]c(=O)c3ccccc23)ccc1F)N1CCN(C(=O)C2CC2)CC1", "system": "cancer patients", "conditions": "oral, 100 mg twice daily, day 2, together with: pegylated liposomal doxorubicin", "measurement": "AUC(0-10 h)", "value": "9400 ± 3000 ng·h/mL"}
{"Substance": "N=C(N)c1ccc(CNC(=O)[C@@H]2CCN2C(=O)[C@H](NCC(=O)O)C2CCCCC2)cc1", "system": "Wistar rats male, plasma", "conditions": "intravenous, 0.1 mg/kg, 15 min, 10 min after TF", "measurement": "plasma concentration", "value": "200 ± 25.8 ng/mL"}
{"Substance": "COc1cc(CCC(C)=O)ccc1O", "system": "normal-weight male C57BL/6J mice, brain", "conditions": "oral, 200 mg/kg, 0 to 12 h, low-fat diet", "measurement": "AUC(0-t)", "value": "2.2 ± 0.21 nmol·min/g"}
{"Substance": "O=C(CCc1ccccc1)c1ccccc1OCC(O)CN1CCN(C(c2ccccc2)c2ccccc2)CC1 (stereo not drawn)", "test": "metabolic stability", "system": "human, liver microsomes", "conditions": "20 µM, pH 7.4", "measurement": "scaled CLint", "value": "13.6 mL/min/kg"}
{"Substance": "CC(C)C[C@H](NC(=O)[C@H](CCCNC(=N)N)NC(=S)Nc1ccc(C[C@H]2CN(CC(=O)O)CCN(CC(=O)O)CCN2CC(=O)O)cc1)C(=O)N[C@@H](CC(N)=O)C(=O)N[C@H](C(=O)NCC(=O)NCC(=O)N[C@H](C(=O)N[C@@H](Cc1ccc(O)cc1)C(=O)N[C@@H](Cc1ccccc1)C(=O)N[C@@H](CC(C)C)C(=O)N[C@H](C(=O)N[C@H](C(=O)N[C@@H](CCCNC(=N)N)C(=O)N[C@@H](CCC(N)=O)C(=O)O)[C@@H](C)O)[C@@H](C)O)[C@@H](C)O)C(C)C [fluorine-18 labelled]", "test": "radio-HPLC", "system": "mouse (HepG2 tumour-bearing), urine", "conditions": "intravenous, 5.55 MBq, 1 h", "measurement": "intact parent radiotracer", "value": "3.31 ± 0.2%"}
{"Substance": "NCCCn1c2c(c3ccc(N)cc3c1=O)C(=O)c1ccccc1-2", "system": "Sprague-Dawley rat, female, mammary gland, pooled", "conditions": "oral gavage, 40 mg/kg/day, 3 h after last dose, dosed 3 days", "measurement": "tissue concentration", "value": "290 ng/g"}
{"Substance": "C=CC(N)CCC(=O)O (stereo not drawn)", "system": "male Sprague-Dawley rat, plasma", "conditions": "oral, 10 mg/kg, formulation 8, together with: infant formula 1500 mg/kg", "measurement": "clearance", "value": "9.47 ± 0.3 mL/min/kg"}
{"Substance": "Cc1nc2cccc(OCC(C)(C)C(=O)NC(C)C)c2c(N)c1C(=O)O", "system": "male Sprague-Dawley rat, plasma", "conditions": "oral gavage, 100 mg/kg, day 7", "measurement": "Tmax", "value": "0.25 h"}
{"Substance": "CCCOc1ccc([C@H]2CNC(=O)N2c2ccc3[nH]cnc3c2)cc1", "system": "human volunteers fasted, plasma", "conditions": "oral solution, 200 mg single dose, day 1, geometric mean", "measurement": "apparent terminal half-life", "value": "3.16 h"}
{"Substance": "O=C1N=C(N2CCOCC2)CN1c1ccc(Cl)cc1", "system": "beagle dog, female", "conditions": "oral, 30 mg/kg, tablets, fed", "measurement": "Tmax", "value": "1.6 h"}
{"Substance": "C[C@](N)(Cc1ccc(O)c(O)c1)C(=O)O", "test": "static gravimetric method", "system": "supercritical CO2, 851.7 kg/m3", "conditions": "5 h, 323 K, pressure 27 MPa", "measurement": "solubility", "value": "318 µg/mL"}
{"Substance": "OC[C@H]1O[C@@H](c2ccc(Cl)c(Cc3ccc(O[C@H]4CCOC4)cc3)c2)[C@H](O)[C@@H](O)[C@@H]1O", "test": "HPLC-MS/MS", "system": "healthy Chinese volunteers, fasting", "conditions": "oral, 10 mg tablet, 1.25 h", "measurement": "plasma concentration", "value": "168 ± 44.1 ng/mL"}
{"Substance": "COc1cc(/C=C/C(=O)CC(=O)/C=C/c2ccc(O)c(OC)c2)ccc1O", "system": "C57BL/6J mouse, cerebral cortex", "conditions": "10 µg IN, 100 µg IP, 30 min, I-125 labelled", "how to read": "reference: IN over IP", "measurement": "brain uptake ratio", "value": 3.01}
{"Substance": "CC(=O)Nc1noc(C)n1", "system": "mouse C57BL/6, male, brain", "conditions": "oral, 60 mg/kg, 2 h", "measurement": "brain concentration", "value": "883 to 1590 ng/g"}
{"Substance": "CC1=C2C[C@H]3[C@@H](CC[C@@H]4C[C@H](NS(C)(=O)=O)CC[C@@]43C)[C@@H]2CC[C@@]2(C1)O[C@@H]1C[C@H](C)CN[C@H]1[C@H]2C", "system": "patients, plasma", "conditions": "oral, 30 mg single, day -7, cycle 1", "measurement": "Tmax", "value": "6.08 h"}
{"Substance": "CN(C)C/C=C/C(=O)Nc1cc2c(Nc3ccc(F)c(Cl)c3)ncnc2cc1O[C@H]1CCOC1", "system": "human, plasma", "conditions": "oral, 10 mg once daily, day 27, geometric mean", "measurement": "half-life at steady state", "value": "47 h"}
{"Substance": "CC(C)=CCC[C@](C)(O[C@@H]1O[C@H](CO)[C@@H](O)[C@H](O)[C@H]1O)[C@H]1CC[C@]2(C)[C@@H]1[C@H](O)C[C@@H]1[C@@]3(C)CC[C@H](O[C@@H]4O[C@H](CO)[C@@H](O)[C@H](O)[C@H]4O[C@@H]4O[C@H](CO)[C@@H](O)[C@H](O)[C@H]4O)C(C)(C)[C@@H]3CC[C@]12C", "system": "Sprague Dawley rat, male, plasma", "conditions": "oral, 42 mg/kg, in white ginseng extract", "measurement": "CL/F", "value": "18.3 ± 5 mL/min/kg"}
{"Substance": "CON", "system": "human, whole blood on ice", "conditions": "0 min before centrifugation", "measurement": "blood concentration", "value": "10.5 ng/mL"}
